Results gathered from unrelated publications.
Protocols differ between the studies behind these lines. “And” joins repeats or separate records; there may be more than shown. ± marks the error that the study gave.
Cell line: HeLa

Nc1ncn([C@@H]2O[C@H](CO)[C@@H](O)[C@H]2O)c(=O)n1  IC50 (cell growth or viability): 4.91 µM
[Co+2].[O-]c1c(I)cc(I)c2cccnc12.[O-]c1c(I)cc(I)c2cccnc12.c1cnc2c(c1)ccc1cccnc12  IC50 (cell growth or viability, MTT; 48 h): 10.6 µM
C[C@@H]1CC[C@@H]([C@](O)(CNCc2cccc(F)c2)COCc2ccccc2)[C@H](OCc2ccccc2)C1  IC50 (cell growth or viability, MTT; 72 h): 2.78 µM
CCC(=CCc1c(O)cc2c(c1O)C(=O)CC(c1cc(OC)ccc1O)O2)CC (stereo not drawn)  IC50 (cell growth or viability, MTT; 48 h): > 100 µM
CCOC(=O)/C=C1\S/C(=N\N=C\c2cccc3cc4ccccc4nc23)N(c2ccc([N+](=O)[O-])cc2)C1=O  IC50 (cell growth or viability, MTT; 48 h): 17.9 µM
Cc1c(C)c2cccnc2c2ncccc12  IC50 (cell growth or viability, MTT; 48 h): > 50 µM
C[C@@H]1CC[C@@H]([C@@](O)(COCc2ccccc2)Cn2cnc3ccccc32)[C@H](OCc2ccccc2)C1  IC50 (cell growth or viability, MTT; 72 h): 6.85 µM
O=[C]=[Mn-2]12(=[C]=O)(=[C]=O)[O]c3cc4c(cc3=[N+]1CCc1ccccc1)[O][Mn-2](=[C]=O)(=[C]=O)(=[C]=O)([N+]=4CCc1ccccc1)[n+]1ccc(cc1)C(=O)Oc1ccccc1OC(=O)c1cc[n+]2cc1  IC50 (cell growth, MTT; 48 h, LED photolysed 1 h): 31.9 ± 2.63 µM
C[C@@H]1CC[C@@H]([C@](O)(CNCc2ccc(F)cc2)COCc2ccccc2)[C@H](OCc2ccccc2)C1  IC50 (cell growth or viability, MTT; 72 h): 7.15 µM
O=C(O)C(CO)NCc1cc(Cl)c(OCc2cccc(-c3ccccc3)c2Br)cc1OCc1cccnc1 (stereo not drawn)  IC50 (cell growth or viability, MTT): > 10 µM
Cc1c(COc2cc(OCc3cccc(C#N)c3)c(CNC(C)(CO)CO)cc2Cl)cccc1-c1cccc(OCCCCCCC(=O)NO)c1  IC50 (cell growth or viability, CCK-8; 48 h): > 20 µM
CCCN1C(=O)CS/C1=N\N=C\c1cccc2cc3ccccc3nc12  IC50 (cell growth or viability, MTT; 48 h): 30.4 µM
NCCOc1cc(NC(=O)c2cc(OCc3cn(Cc4ccc(C(=O)O)cc4)nn3)cc(C(=O)Nc3cc(OCCN)c4ccccc4n3)n2)nc2ccccc12  IC50 (cell growth or viability, ATP luminescence; 72 h): > 40 µM
C=CCc1c(O)cc2c(c1O)C(=O)CC(c1ccc(O)cc1)O2 (stereo not drawn)  IC50 (cell growth or viability, MTT; 48 h): > 100 µM
O=C1CS/C(=N\N=C\c2cccc3cc4ccccc4nc23)N1c1ccc([N+](=O)[O-])cc1  IC50 (cell growth or viability, MTT; 48 h): 32 µM
COc1ccc(COC[C@](O)(CNCc2ccc(F)cc2)[C@@H]2CC[C@@H](C)C[C@H]2OCc2ccc(OC)cc2)cc1  IC50 (cell growth or viability, MTT; 72 h): 3.62 µM
CC1(C)S[C@@H]2[C@H](NC(=O)[C@H](NC(=O)C3=C(O)C(c4ccccc4F)NC3=O)c3ccccc3)C(=O)N2[C@H]1C(=O)O (stereo partly drawn)  IC50 (cell growth or viability, ATP luminescence; 48 h): 77.3 µg/mL
Cc1ccc2c(Cl)cc(Cl)c([O-])c2n1.Cc1ccc2c(Cl)cc(Cl)c([O-])c2n1.Clc1ccnc2c1ccc1c(Cl)ccnc12.[Co+2]  IC50 (cell growth or viability, MTT; 48 h): 1.09 µM
CCC(=CCc1c(O)cc2c(c1O)C(=O)CC(c1cccc(OC)c1O)O2)CC (stereo not drawn)  IC50 (cell growth or viability, MTT; 48 h): 20.9 µM
Cc1ccnc(-c2cc(C)ccn2)c1  IC50 (cell growth or viability, MTT; 48 h): > 50 µM
CC(CCC(=O)[O][Pt]([NH2])([NH2])([OH])([Cl])[Cl])C1CCC2C3CCC4CC(O)CCC4(C)C3CCC12C (stereo not drawn)  IC50 (cell growth or viability, MTT; 72 h): 7.3 µM
Cc1c(COc2cc(OCc3cccc(C#N)c3)c(CNCCO)cc2Cl)cccc1-c1cccc(OCCCCCCC(=O)NO)c1  IC50 (cell growth or viability, CCK-8; 48 h): 12.8 µM
O=c1[nH]c(=O)n([C@@H]2O[C@H](CO)[C@@H](O)[C@H]2O)cc1F  IC50 (cell growth or viability): 3.46 µM
CCC(=CCc1c(O)cc2c(c1O)C(=O)CC(c1cc(O)cc(OC)c1)O2)CC (stereo not drawn)  IC50 (cell growth or viability, MTT; 48 h): 26.2 µM
O=C(NCCOCCOCCOCCNC(=O)c1cc2ccccc2c2ccccc12)c1cc(C(=O)N2CCNCCNCCNCC2)c(O)c(C(=O)N2CCNCCNCCNCC2)c1  IC50 (cell growth or viability, MTT; 24 h): > 1000 µM
CCCC[N+]1=c2cc3c4cc2[O][Mn-2]1(=[C]=O)(=[C]=O)(=[C]=O)[n+]1ccc(cc1)C(=O)Nc1ccccc1NC(=O)c1cc[n+](cc1)[Mn-2](=[C]=O)(=[C]=O)(=[C]=O)([O]3)[N+]=4CCCC  IC50 (cell growth, MTT; 48 h, LED photolysed 1 h): 0.78 ± 0.03 µM
Cc1cc(C(=O)N2CCNCCNCCNCC2)c(O)c(C(=O)N2CCNCCNCCNCC2)c1  IC50 (cell growth or viability, MTT; 24 h): > 10000 µM
CCOC(=O)/C=C1\S/C(=N\N=C\c2cccc3cc4ccccc4nc23)N(c2ccc(OC)cc2)C1=O  IC50 (cell growth or viability, MTT; 48 h): 37.6 µM
NC(=O)c1ccc(-c2ccccc2Cl)c2c3c([nH]c12)CCC(N)C3 (stereo not drawn)  IC50 (cell growth or viability): 0.02 µM
CCOc1cncc(-c2ccc(NC(=O)C3(c4ccnc(NS(=O)(=O)C5CC5)n4)CCOCC3)nc2)n1  IC50 (cell growth or viability, ATP luminescence; 72 h): 10 µM
Cc1sc2c(c1C)C(c1ccc(Cl)cc1)=N[C@@H](CC(=O)NCCN(C)CCCCNC(=O)CCCCOc1cccc3c1C(=O)N([C@H]1CCC(=O)NC1=O)C3=O)c1nnc(C)n1-2  IC50 (cell growth or viability, CCK-8; 72 h): > 10 µM
c1ccc2nc3c4cccnc4c4ncccc4c3nc2c1  IC50 (cell growth or viability, MTT; 48 h): > 50 µM
COc1ccc(COC[C@](O)(CNCc2ccccc2)[C@@H]2CC[C@@H](C)C[C@H]2OCc2ccc(OC)cc2)cc1  IC50 (cell growth or viability, MTT; 72 h): 3.09 µM
Cc1c(COc2cc(OCc3cccc(C#N)c3)c(CNC(CO)CO)cc2Cl)cccc1-c1cccc(OCCCCCCC(=O)NO)c1  IC50 (cell growth or viability, CCK-8; 48 h): 11.7 µM
COc1ccccc1CNC[C@@](O)(COCc1ccccc1)[C@@H]1CC[C@@H](C)C[C@H]1OCc1ccccc1  IC50 (cell growth or viability, MTT; 72 h): 2.63 µM
CCCC[N+]1=c2cc3c4cc2[O][Mn-2]1(=[C]=O)(=[C]=O)(=[C]=O)[n+]1ccc(cc1)C(=O)OCCOC(=O)c1cc[n+](cc1)[Mn-2](=[C]=O)(=[C]=O)(=[C]=O)([O]3)[N+]=4CCCC  IC50 (cell growth, MTT; 48 h, LED photolysed 1 h): 11.6 ± 4.58 µM
Nc1nc(=O)n(C2CC(O)C(CO)O2)cc1F (stereo not drawn)  IC50 (cell growth or viability): > 10 µM
NCCOc1cc(NC(=O)c2cc(Cl)cc(C(=O)Nc3cc(OCCN)c4ccccc4n3)n2)nc2ccccc12  IC50 (cell growth or viability, ATP luminescence; 72 h): 1.5 µM
CCCCN(C)CC(O)Cn1c2ccc(Br)cc2c2cc(Br)ccc21 (stereo not drawn)  IC50 (cell growth or viability): 1.41 µM
Clc1ccnc2c1ccc1c(Cl)ccnc12.[Co+2].[O-]c1c(I)cc(I)c2cccnc12.[O-]c1c(I)cc(I)c2cccnc12  IC50 (cell growth or viability, MTT; 48 h): 10.1 µM
CCOC(=O)/C=C1\S/C(=N\N=C\c2cccc3cc4ccccc4nc23)N(C)C1=O  IC50 (cell growth or viability, MTT; 48 h): 18.8 µM
COC(=O)[C@@H](NC(=O)[C@@H](NC(=O)OC(C)(C)C)C(C)C)C(C)C  IC50 (cell growth or viability, SRB): 3.42 µM and 7.99 µM and 6.13 µM

For quick reference, copied from above:
CCCC[N+]1=c2cc3c4cc2[O][Mn-2]1(=[C]=O)(=[C]=O)(=[C]=O)[n+]1ccc(cc1)C(=O)Nc1ccccc1NC(=O)c1cc[n+](cc1)[Mn-2](=[C]=O)(=[C]=O)(=[C]=O)([O]3)[N+]=4CCCC  IC50 (cell growth, MTT; 48 h, LED photolysed 1 h): 0.78 ± 0.03 µM
c1ccc2nc3c4cccnc4c4ncccc4c3nc2c1  IC50 (cell growth or viability, MTT; 48 h): > 50 µM
NC(=O)c1ccc(-c2ccccc2Cl)c2c3c([nH]c12)CCC(N)C3 (stereo not drawn)  IC50 (cell growth or viability): 0.02 µM
CCOC(=O)/C=C1\S/C(=N\N=C\c2cccc3cc4ccccc4nc23)N(C)C1=O  IC50 (cell growth or viability, MTT; 48 h): 18.8 µM
CC(CCC(=O)[O][Pt]([NH2])([NH2])([OH])([Cl])[Cl])C1CCC2C3CCC4CC(O)CCC4(C)C3CCC12C (stereo not drawn)  IC50 (cell growth or viability, MTT; 72 h): 7.3 µM
Cc1c(C)c2cccnc2c2ncccc12  IC50 (cell growth or viability, MTT; 48 h): > 50 µM
O=C(NCCOCCOCCOCCNC(=O)c1cc2ccccc2c2ccccc12)c1cc(C(=O)N2CCNCCNCCNCC2)c(O)c(C(=O)N2CCNCCNCCNCC2)c1  IC50 (cell growth or viability, MTT; 24 h): > 1000 µM
